Published values pooled from the literature.
Protocols differ between the studies behind these lines.

O=c1c2cc(Cl)ccc2sc2c(NCc3ccccc3)nc3ccccc3c12 gave an MRT of 2.56 h (male Sprague-Dawley rat, plasma; intravenous, 3 mg/kg, single dose).
For COc1ccc(S(=O)(=O)N2CCc3ccccc3C2)cc1N1CCN(C(=O)c2ccc(F)cc2C(F)(F)F)CC1, the MRT was 0.72 h (rat, plasma; intravenous, 10 mg/kg, single dose).
CSCOC1C(=O)C2(C)C(OCSC)CC3OCC3(OC(C)=O)C2C(OC(=O)c2ccccc2)C2(O)CC(OC(=O)C(O)C(C=C(C)C)NC(=O)OC(C)(C)C)C(C)=C1C2(C)C (stereo not shown) gave an MRT(0-t) of 3.5 h (female Sprague-Dawley rat, plasma; intravenous, 1 mg/kg).
COc1cc(NC(C)=O)c2c(c1O)-c1c(OC)c(OC)cc3c1C(C2)N(C)CC3 (stereo not shown) has an MRT(0-inf) of 2.22 h (HPLC; male Wistar rat, plasma; intravenous, 100 mg/kg).
For Cn1cc(-c2cc(N3CCCS3(=O)=O)ccc2N[C@H]2CC[C@H](C)CC2)c2cc[nH]c2c1=O, the MRT(0-inf) was 1.66 h (Sprague-Dawley rat, plasma; intravenous, 1 mg/kg).
With N#Cc1cnc2cc(OCC3CCNCC3)c(F)cc2c1Nc1cc(F)c(OCc2cccc(Cl)n2)cc1Cl the MRT was 8.8 h (male Sprague-Dawley rat, plasma; oral, 100 mg/kg).
CNC(=O)N[C@]1(C)CCC[C@@]2(C)C3CC[C@@]4(C)C[C@]3(CCC21)CC4=O (single isomer, unassigned) has an MRT(0-inf) of 0.344 h (male Sprague-Dawley rat, plasma; intravenous, 2 mg/kg).
For O=C(N[C@@H](CC1CCCCC1)C(=O)N[C@@H](C[C@H]1CCNC1=O)C(=O)C(=O)NC1CC1)OCc1cccc(Cl)c1, the MRT was 5.55 h (female Sprague-Dawley rat, plasma; intravenous, 10 mg/kg).
With Cn1cc(-c2cc(N3CCCCS3(=O)=O)ccc2N[C@H]2CC[C@H](C)CC2)c2cc[nH]c2c1=O (stereo in doubt) the MRT(0-inf) was 1.2 h (Sprague-Dawley rat, plasma; intravenous, 1 mg/kg).
The MRT(0-t) of Nc1nc(Cl)nc2c1ncn2Cc1cc(OCC(F)F)cc(OC(F)F)c1 is reported as 13.4 h (Sprague-Dawley rat, plasma; oral, 5 mg/kg).
With COCCCN1CCc2c(Cc3ccc(Cl)cc3)[nH]c3c(OC(F)F)ccc(c23)C1=O the MRT(0-t) was 2.34 h (male Sprague-Dawley rat, blood; intravenous, 2.5 mg/kg).
C#Cc1cccc(Nc2ncnc3cc(OC)c(OCCCN4CCOCC4)cc23)c1 has an MRT(0-inf) of 3.96 h (Sprague-Dawley rat, plasma; intravenous, 10 mg/kg).
N=C(N)NCCC[C@H](NC(=O)[C@@H]1CCCN1C(=O)[C@H](Cc1ccccc1)NC(=O)[C@@H]1CCCN1C(=O)[C@H](Cc1c[nH]cn1)NC(=O)[C@@H](N)Cc1ccccc1)C(=O)O gave an MRT of 0.344 h (male Sprague-Dawley rat, plasma; intravenous, 10 mg/kg).
COC(=O)/C=C/C(=O)c1ccc(OC)cc1 gave an MRT of 11.7 h (Sprague-Dawley rat, plasma; oral, 100 mg/kg).
The MRT of CC(C)(C)C(=O)Nc1ccc2[nH]c(CN3CCC(N(CCCN4CCOCC4)CC4OC(n5cnc6c(N)ncnc65)C(O)C4O)CC3)nc2c1 (stereo not shown) is reported as 1.14 h (male Sprague-Dawley rat, plasma; intravenous, 20 mg/kg).
With CCCN(c1ccc(C(=O)NCCC(=O)O)cc1)S(=O)(=O)c1cc(C)c(-c2ccc(C(C)(C)C)cc2)c(C)c1 the MRT was 0.263 h (rat, plasma; intravenous, 2 mg/kg).

Excerpt of the above:
COC(=O)/C=C/C(=O)c1ccc(OC)cc1 gave an MRT of 11.7 h (Sprague-Dawley rat, plasma; oral, 100 mg/kg).
The MRT of CC(C)(C)C(=O)Nc1ccc2[nH]c(CN3CCC(N(CCCN4CCOCC4)CC4OC(n5cnc6c(N)ncnc65)C(O)C4O)CC3)nc2c1 (stereo not shown) is reported as 1.14 h (male Sprague-Dawley rat, plasma; intravenous, 20 mg/kg).
